Experimental data collected from several papers.
Every numbered part comes from another study and shows a few of its results, in no order.
Chain of UniProt P18089 (whole entry, looked up): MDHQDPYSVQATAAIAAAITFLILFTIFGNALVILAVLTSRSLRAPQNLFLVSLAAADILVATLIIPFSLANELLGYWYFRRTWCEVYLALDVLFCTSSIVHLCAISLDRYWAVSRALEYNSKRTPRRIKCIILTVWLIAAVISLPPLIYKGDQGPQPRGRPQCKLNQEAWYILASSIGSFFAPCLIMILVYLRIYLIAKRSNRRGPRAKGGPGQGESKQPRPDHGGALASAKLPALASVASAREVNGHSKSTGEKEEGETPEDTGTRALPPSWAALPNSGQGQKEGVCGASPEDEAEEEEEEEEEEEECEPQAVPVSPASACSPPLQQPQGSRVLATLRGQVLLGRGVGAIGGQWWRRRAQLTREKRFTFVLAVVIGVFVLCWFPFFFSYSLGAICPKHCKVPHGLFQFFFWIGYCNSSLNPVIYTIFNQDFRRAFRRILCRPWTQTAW
Chain of UniProt Q9UBS0 (whole entry, looked up): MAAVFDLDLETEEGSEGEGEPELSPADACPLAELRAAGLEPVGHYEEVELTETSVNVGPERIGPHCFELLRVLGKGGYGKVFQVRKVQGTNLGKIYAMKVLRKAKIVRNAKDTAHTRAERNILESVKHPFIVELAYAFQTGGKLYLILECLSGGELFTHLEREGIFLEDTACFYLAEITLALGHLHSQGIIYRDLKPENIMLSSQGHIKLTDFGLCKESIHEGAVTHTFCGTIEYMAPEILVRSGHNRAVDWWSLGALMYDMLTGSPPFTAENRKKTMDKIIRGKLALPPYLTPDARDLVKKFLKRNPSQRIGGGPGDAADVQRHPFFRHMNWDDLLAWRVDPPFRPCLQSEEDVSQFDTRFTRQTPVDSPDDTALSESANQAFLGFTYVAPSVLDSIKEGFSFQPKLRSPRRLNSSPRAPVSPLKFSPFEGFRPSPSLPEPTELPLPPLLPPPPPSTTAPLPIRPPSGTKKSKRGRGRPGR
Chain of UniProt P41595 (whole entry, looked up): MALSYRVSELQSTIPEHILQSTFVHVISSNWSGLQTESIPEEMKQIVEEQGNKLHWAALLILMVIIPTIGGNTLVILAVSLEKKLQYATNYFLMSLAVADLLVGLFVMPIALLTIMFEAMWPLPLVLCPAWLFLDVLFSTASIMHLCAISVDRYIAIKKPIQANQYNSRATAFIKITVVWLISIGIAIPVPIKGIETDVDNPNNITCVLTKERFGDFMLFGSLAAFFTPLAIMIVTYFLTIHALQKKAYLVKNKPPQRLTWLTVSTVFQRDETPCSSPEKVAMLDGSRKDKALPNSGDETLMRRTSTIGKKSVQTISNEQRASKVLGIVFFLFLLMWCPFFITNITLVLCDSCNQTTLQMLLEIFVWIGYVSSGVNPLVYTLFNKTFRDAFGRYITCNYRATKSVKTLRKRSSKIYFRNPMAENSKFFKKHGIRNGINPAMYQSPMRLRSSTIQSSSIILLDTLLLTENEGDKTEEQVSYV
Chain of UniProt P21728 (whole entry, looked up): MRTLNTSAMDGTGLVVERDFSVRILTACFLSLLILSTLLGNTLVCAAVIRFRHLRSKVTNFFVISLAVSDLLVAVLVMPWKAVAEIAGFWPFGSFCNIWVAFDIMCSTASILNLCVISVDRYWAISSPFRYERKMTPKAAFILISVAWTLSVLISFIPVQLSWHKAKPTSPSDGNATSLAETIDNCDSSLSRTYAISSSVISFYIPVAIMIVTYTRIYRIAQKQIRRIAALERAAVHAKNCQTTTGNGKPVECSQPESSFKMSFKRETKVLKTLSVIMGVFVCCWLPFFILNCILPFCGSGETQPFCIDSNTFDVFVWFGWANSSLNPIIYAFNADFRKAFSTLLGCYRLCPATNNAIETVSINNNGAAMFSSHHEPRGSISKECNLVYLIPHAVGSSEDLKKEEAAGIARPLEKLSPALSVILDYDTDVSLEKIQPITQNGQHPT
Chain of UniProt P25021 (whole entry, looked up): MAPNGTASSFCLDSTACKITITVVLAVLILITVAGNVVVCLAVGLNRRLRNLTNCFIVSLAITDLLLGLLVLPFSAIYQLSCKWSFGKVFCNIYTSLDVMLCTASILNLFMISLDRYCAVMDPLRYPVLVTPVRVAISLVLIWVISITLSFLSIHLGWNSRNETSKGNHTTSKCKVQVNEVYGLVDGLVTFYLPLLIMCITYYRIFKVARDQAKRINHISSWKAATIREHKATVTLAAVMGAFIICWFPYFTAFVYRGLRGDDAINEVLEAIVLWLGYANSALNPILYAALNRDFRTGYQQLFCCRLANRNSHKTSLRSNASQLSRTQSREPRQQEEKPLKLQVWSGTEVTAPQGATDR
Chain of UniProt P17948 (whole entry, looked up): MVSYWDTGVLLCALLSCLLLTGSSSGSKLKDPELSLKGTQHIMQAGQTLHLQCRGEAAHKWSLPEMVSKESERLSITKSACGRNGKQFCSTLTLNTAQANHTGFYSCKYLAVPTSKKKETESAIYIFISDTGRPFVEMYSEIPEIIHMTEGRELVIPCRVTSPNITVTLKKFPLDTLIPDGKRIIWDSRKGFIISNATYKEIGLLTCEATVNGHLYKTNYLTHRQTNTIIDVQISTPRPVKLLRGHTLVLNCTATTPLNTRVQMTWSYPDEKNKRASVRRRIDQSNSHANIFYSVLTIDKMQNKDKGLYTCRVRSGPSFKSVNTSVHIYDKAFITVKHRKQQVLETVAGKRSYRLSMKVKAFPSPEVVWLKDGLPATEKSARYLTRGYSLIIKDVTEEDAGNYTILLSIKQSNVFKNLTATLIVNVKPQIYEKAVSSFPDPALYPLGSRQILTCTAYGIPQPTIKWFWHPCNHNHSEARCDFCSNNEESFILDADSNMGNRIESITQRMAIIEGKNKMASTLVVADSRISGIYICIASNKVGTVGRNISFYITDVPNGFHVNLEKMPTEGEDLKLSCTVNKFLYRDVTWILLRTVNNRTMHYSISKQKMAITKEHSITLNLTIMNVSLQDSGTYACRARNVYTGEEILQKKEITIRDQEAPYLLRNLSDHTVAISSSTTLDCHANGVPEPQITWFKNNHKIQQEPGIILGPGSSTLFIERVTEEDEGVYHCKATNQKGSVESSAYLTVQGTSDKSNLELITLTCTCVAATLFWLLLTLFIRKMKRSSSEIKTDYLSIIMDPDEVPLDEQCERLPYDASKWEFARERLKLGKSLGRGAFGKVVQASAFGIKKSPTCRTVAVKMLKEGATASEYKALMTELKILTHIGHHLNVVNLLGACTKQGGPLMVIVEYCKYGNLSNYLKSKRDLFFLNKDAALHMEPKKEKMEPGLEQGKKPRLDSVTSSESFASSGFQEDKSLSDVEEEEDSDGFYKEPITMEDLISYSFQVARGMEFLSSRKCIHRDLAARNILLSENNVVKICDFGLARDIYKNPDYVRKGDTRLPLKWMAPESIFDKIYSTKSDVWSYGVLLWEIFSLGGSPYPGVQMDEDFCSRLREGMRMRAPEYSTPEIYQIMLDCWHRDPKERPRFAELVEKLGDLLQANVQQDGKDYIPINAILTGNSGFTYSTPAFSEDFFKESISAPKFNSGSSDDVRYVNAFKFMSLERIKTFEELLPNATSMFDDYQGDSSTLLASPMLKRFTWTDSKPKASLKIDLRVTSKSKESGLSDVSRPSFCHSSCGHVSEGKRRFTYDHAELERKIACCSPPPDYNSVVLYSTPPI
Chain of UniProt P54753 (whole entry, looked up): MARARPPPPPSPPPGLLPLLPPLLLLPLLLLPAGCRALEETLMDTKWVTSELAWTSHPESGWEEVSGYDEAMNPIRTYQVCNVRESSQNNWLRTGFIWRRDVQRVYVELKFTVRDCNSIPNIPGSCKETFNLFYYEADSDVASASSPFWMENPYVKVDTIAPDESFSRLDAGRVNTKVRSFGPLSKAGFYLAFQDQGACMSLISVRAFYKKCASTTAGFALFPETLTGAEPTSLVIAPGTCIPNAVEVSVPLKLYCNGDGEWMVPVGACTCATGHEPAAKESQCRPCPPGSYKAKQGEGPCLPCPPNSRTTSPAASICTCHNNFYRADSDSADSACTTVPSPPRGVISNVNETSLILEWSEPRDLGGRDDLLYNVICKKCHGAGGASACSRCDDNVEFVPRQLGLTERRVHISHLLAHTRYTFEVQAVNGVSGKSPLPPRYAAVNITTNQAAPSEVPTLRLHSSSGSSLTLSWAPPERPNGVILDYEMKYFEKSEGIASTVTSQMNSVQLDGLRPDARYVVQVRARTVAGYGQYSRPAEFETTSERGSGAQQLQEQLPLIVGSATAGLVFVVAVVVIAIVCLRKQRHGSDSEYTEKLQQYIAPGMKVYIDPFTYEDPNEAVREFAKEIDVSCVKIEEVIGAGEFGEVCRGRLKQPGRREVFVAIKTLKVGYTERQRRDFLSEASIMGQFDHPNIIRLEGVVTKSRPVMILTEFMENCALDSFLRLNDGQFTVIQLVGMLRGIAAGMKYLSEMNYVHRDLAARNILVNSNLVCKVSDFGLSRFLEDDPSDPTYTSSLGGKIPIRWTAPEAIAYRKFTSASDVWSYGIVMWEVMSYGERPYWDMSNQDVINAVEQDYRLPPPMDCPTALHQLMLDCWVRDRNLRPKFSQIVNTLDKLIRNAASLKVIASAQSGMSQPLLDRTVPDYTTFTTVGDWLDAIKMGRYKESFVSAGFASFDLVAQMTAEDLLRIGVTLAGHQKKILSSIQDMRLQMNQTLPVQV
Chain of UniProt P21917 (whole entry, looked up): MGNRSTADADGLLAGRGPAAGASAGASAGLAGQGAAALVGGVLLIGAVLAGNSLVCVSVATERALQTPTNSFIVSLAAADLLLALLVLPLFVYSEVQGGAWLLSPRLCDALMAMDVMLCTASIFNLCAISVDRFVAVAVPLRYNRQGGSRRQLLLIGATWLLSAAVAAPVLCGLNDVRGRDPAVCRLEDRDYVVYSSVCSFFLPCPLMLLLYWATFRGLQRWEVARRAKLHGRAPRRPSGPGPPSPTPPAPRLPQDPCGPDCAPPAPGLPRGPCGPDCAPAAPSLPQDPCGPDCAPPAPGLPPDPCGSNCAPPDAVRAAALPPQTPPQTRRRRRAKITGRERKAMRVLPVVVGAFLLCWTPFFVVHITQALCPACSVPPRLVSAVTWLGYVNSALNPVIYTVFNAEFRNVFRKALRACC

Study 1 — SMILES: CCC(=O)Nc1ccc2ncnc(Nc3cccc(Br)c3)c2c1; observed: enzyme activity; action: inhibitor; concentration: 0.5 µM; baseline: control
target	remaining activity
Ephrin type-B receptor 3 (EPHB3, Homo sapiens, UniProt P54753)	89.4%
SRSF protein kinase 1 (SRPK1, Homo sapiens, UniProt Q96SB4)	97%
Tyrosine-protein kinase Tec (TEC, Homo sapiens, UniProt P42680)	103%
Cyclin-dependent kinase 5, with p35 (CDK5, Homo sapiens, UniProt Q00535)	100%
Receptor tyrosine-protein kinase erbB-2 (ERBB2, Homo sapiens, UniProt P04626)	34%
Mitogen-activated protein kinase kinase kinase 20 (MAP3K20, Homo sapiens, UniProt Q9NYL2)	96%
Ribosomal protein S6 kinase beta-2 (RPS6KB2, Homo sapiens, UniProt Q9UBS0)	94.9%
Tyrosine-protein kinase JAK1 (JAK1, Homo sapiens, UniProt P23458)	96.6%
Insulin-like growth factor 1 receptor (IGF1R, Homo sapiens, UniProt P08069)	87.5%
Vascular endothelial growth factor receptor 1 (FLT1, Homo sapiens, UniProt P17948)	86.9%
Tyrosine-protein kinase JAK2 (JAK2, Homo sapiens, UniProt O60674)	103%
Dual specificity tyrosine-phosphorylation-regulated kinase 1A (DYRK1A, Homo sapiens, UniProt Q13627)	89.2%
Casein kinase I isoform delta (CSNK1D, Homo sapiens, UniProt P48730)	96.9%
Serine/threonine-protein kinase pim-1 (PIM1, Homo sapiens, UniProt P11309)	85.3%

Study 2 — technique: two-hybrid; baseline: out of 4 tests; direction: higher = firmer interaction
Partner: ARF16 570-670 (Arabidopsis thaliana, UniProt Q93YR9)
B1: IAA33 (Arabidopsis thaliana, UniProt Q9FKM7); chain MNSFEPQSQDSLQRRFHQDNSTTQQPRDTTTPFIPKPASKNHNNSNSSSGAAGRSFQGFGLNVEDDLVSSVVPPVTVVLEGRSICQRISLDKHGSYQSLASALRQMFVDGADSTDDLDLSNAIPGHLIAYEDMENDLLLAGDLTWKDFVRVAKRIRILPVKGNTRQVKRNE
B2: ARF10 575-693 (Arabidopsis thaliana, UniProt Q9SKN5); chain LQGLETGHCKVFMESEDVGRTLDLSVIGSYQELYRKLAEMFHIEERSDLLTHVVYRDANGVIKRIGDEPFSDFMKATKRLTIKMDIGGDNVRKTWITGIRTGENGIDASTKTGPLSIFA
B3: IAA29 (Arabidopsis thaliana, UniProt Q93WC4); chain MELDLGLSLSPHKSSKLGFNFDLNKHCAIEGAASCLGTEKLRFEATFGLGNVEENCYMPKQRLFALNGQPNEEDEDPLESESSIVYDDEEENSEVVGWPPVKTCMIKYGSYHHRHIRNHHHCPYHHRGRRITAMNNNISNPTTATVGSSSSSSISSRSSMYVKVKMDGVAIARKVDIKLFNSYESLTNSLITMFTEYEDCDREDTNYTFTFQGKEGDWLLRGDVTWKIFAESVHRISIIRDRPCAYTRCLF
B4: IAA32 (Arabidopsis thaliana, UniProt Q8RYC6); chain MDPNTPADFFKGSSKFHTYYSQTKKGGGVIDLGLSLRTIQHETYLPPARMIGLDGYGELIDWSQPSYNSITQLKSEDTGHQRLAQGYYNNEGESRGKYAYVKVNLDGLVVGRKVCLVDQGAYATLALQLNDMFGMQTVSGLRLFQTESEFSLVYRDREGIWRNVGDVPWKEFVESVDRMRIARRNDALLPF
B5: ARF4 660-788 (Arabidopsis thaliana, UniProt Q9ZTX9); chain QSSSKRICTKVHKQGSQVGRAIDLSRLNGYDDLLMELERLFNMEGLLRDPEKGWRILYTDSENDMMVVGDDPWHDFCNVVWKIHLYTKEEVENANDDNKSCLEQAALMMEASKSSSVSQPDSSPTITRV
B6: ARF12 500-593 (Arabidopsis thaliana, UniProt Q9XID4); chain TEIQNKQFSSSRTCTKVQMQGVTIGRAVDLSVLNGYDQLILELEKLFDIKGQLQTRNQWEIAFTDSDEDKMLVGDDPWPEFCNMVKKIFIQKRR
B7: ARF6 790-935 (Arabidopsis thaliana, UniProt Q9ZTX8); chain SENPQSNTFVKVYKSGSFGRSLDISKFSSYHELRSELARMFGLEGQLEDPVRSGWQLVFVDRENDVLLLGDDPWPEFVSSVWCIKILSPQEVQQMGKRGLELLNSAPSSNNVDKLPSNGNCDDFGNRSDPRNLGNGIASVGGSFNY
Residues (chain): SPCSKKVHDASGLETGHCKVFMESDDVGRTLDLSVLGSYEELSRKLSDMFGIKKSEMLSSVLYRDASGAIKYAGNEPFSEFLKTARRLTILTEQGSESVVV
Sequence	positive tests
B1 (IAA33)	3
B2 (ARF10 575-693)	0
B3 (IAA29)	0
B4 (IAA32)	2
B5 (ARF4 660-788)	0
B6 (ARF12 500-593)	0
B7 (ARF6 790-935)	0

Study 3 — observed: ligand displacement; technique: radioligand; concentration: 10 µM
Compound: Cc1cc(NC(=O)c2cccc(S(F)(F)(F)(F)F)c2)cc(-n2ccn3nc(-c4cccnc4)cc23)c1
target	inhibition [%]
Histamine H2 receptor (HRH2, Homo sapiens, UniProt P25021)	1.31
D(1A) dopamine receptor (DRD1, Homo sapiens, UniProt P21728)	1.92
5-hydroxytryptamine receptor 3A (HTR3A, Homo sapiens, UniProt P46098)	-1.37
Alpha-2B adrenergic receptor (ADRA2B, Homo sapiens, UniProt P18089)	34.4
D(4) dopamine receptor (DRD4, Homo sapiens, UniProt P21917)	-3.84
5-hydroxytryptamine receptor 2B (HTR2B, Homo sapiens, UniProt P41595)	47.1

Further values, each from its own experiment
Compound	system	endpoint	result
CCOC(=O)[C@@H]1CSCC(=O)N[C@H](CC)C(=O)N(C)[C@@H](C)C(=O)N[C@@H](CC(C)C)C(=O)N2CCC[C@H]2C(=O)N(CC(C)C)CC(=O)N[C@H](CC(C)C)C(=O)N(C)[C@@H](C)C(=O)N[C@@H](CC(C)C)C(=O)N1C	hydrocarbon/water	logD	0.933

For quick reference, copied from above (study 1):
target	remaining activity
Tyrosine-protein kinase Tec (TEC, Homo sapiens, UniProt P42680)	103%
Ephrin type-B receptor 3 (EPHB3, Homo sapiens, UniProt P54753)	89.4%
Insulin-like growth factor 1 receptor (IGF1R, Homo sapiens, UniProt P08069)	87.5%
